Results of several laboratories.
Lines come from different studies, so protocols differ. ± gives the spread as reported.

CCOC(=O)CCNc1cc(N2CCc3ccccc3CC2)nc(-c2ccccn2)n1
viability (OCI-Ly1; 0.5 µM, 120 h): 117%

CCn1cc(-c2cc(Cn3ccnc3)cc3c2OCCN([C@H](c2cc(OC)ccn2)C2CC2)C3=O)c(C(F)(F)F)n1
CL (CD-1 mouse, male; intravenous, 3 mg/kg, 24 h): 29 mL/min/kg

O=C(C=Cc1ccccc1)Nc1cc(-c2ccnc(N3CCC(O)CC3)c2)ccn1
CL (Sprague-Dawley rat, female, plasma; oral, 50.0 mg/kg): 606 ± 93.2 mL/min/kg

O=C(CCCCCCC(=O)NO)NO
viability (OCI-Ly1; 0.1 µM, 120 h): 191%

CCc1cnc2c(c1)[C@@H](N1CCOc3c(cc(Cn4ccnc4)cc3-c3cn(C)nc3C(F)(F)F)C1=O)CCC2
CL (CD-1 mouse, male; intravenous, 3 mg/kg, 24 h): 95 mL/min/kg

COc1ccc(Cl)cc1S(=O)(=O)Nc1cncc(C(N)=O)c1
CL (mouse; intravenous, 2 mg/kg): 5.14 mL/min/kg

CCn1ccc2c([C@](O)(c3cnc(C(F)(F)F)c(Cl)c3)C3CC3)n(C)nc2c1=O
CL (rat Sprague-Dawley male, plasma; intravenous, 1 mg/kg): 8.36 ± 1.19 mL/min/kg

CO[C@H]1/C=C/O[C@@]2(C)Oc3c(C)c(O)c4c(c3C2=O)C2=NC3(CCN(CC(C)C)CC3)NC2=C(NC(=O)/C(C)=C\C=C\[C@H](C)[C@H](O)[C@@H](C)[C@@H](O)[C@@H](C)[C@H](OC(C)=O)[C@@H]1C)C4=O
CL (CD-1 mouse, female, plasma; 10 mg/kg single dose): 10.3 mL/min/kg

Cc1nn(C2CC2)c(=O)c2nn(C)c(Cc3ccc(C(F)(F)F)c(C#N)c3)c12
CL (rat Sprague-Dawley male, plasma; intravenous, 1 mg/kg): 2.31 ± 0.549 mL/min/kg

COc1ccc(Br)cc1S(=O)(=O)Nc1cncc(C(N)=O)c1
CL (mouse; intravenous, 2 mg/kg): 1.83 mL/min/kg

CC(=O)CC(c1ccccc1)c1c(O)c2ccccc2oc1=O (stereo not shown)
CL (Sprague-Dawley rat, male, plasma; oral, 0.2 mg/kg, together with: miconazole; baseline: cpd alone): 100%

Cn1nc2c(=O)n(C3CC3)cnc2c1[C@](O)(c1cnc(C(F)(F)F)c(Cl)c1)C(F)(F)F
CL (rat Sprague-Dawley male, plasma; intravenous, 1 mg/kg): 0.817 ± 987 mL/min/kg

C[C@H]1Oc2cc(cnc2N)-c2c(nn(C)c2C#N)CN(C)C(=O)c2ccc(F)cc21
CL (population PK; moderate renal impairment patients, plasma; oral, 100 mg once daily, cycle 1 day 15, steady state): 194 mL/min

Some of these lines once more:
Cc1nn(C2CC2)c(=O)c2nn(C)c(Cc3ccc(C(F)(F)F)c(C#N)c3)c12
CL (rat Sprague-Dawley male, plasma; intravenous, 1 mg/kg): 2.31 ± 0.549 mL/min/kg
